Results pooled from the literature.
Numbered parts are unrelated; each lists some results of a single study. Positions count from the first letter of the parent shown.

Set 1 — technique: RNA Bind-n-Seq; form: RNA; medium: in vitro; tested at: not given; setting: RNA with constant flanks, ends assumed; reference: input RNA pool; direction: higher = stronger binding
Target: RING finger protein unkempt homolog, zinc fingers 1-6, GST-SBP tag (UNK, Homo sapiens, UniProt Q9C0B0, residues 30-357)
Sequence of UniProt Q9C0B0 (30-357, looked up): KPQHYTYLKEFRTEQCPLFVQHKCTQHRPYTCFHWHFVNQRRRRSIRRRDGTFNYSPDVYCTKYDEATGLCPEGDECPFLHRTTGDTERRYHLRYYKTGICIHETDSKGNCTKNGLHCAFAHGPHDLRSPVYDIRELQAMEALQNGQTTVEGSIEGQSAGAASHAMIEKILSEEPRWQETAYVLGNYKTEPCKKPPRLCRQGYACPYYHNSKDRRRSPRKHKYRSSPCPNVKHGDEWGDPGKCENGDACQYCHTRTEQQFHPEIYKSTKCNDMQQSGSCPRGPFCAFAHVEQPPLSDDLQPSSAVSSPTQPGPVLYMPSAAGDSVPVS
All sequences stand within: GGGAGUUCUACAGUCCGACGAUC … CAACAGAGGAUUGAGCAUCA
Sequence | bound/input enrichment [ratio]
GCAAGAGAUGAUGAGGCAGCUGCAGUUGCACUUUCCUCCCUGAUUCAUGCUUUGGAUGACUCCGACAUGGUGGCCAUAGUUCGAUAUGCUUAUGACAAAAGAGCUAAUCCUCAAGUCGGC | 0.329
GUGACAUCUAAUGAGGUGUGAGCACGGAAGGUUCUUUUUUUCAGUGGCUCUUUUGUCAGAACCCGAGUCAGCCAUCACCCUCGCAGCAACCACCUGACUGCAGGUCAGAUCUCCCCCAGG | 0.2
AUUAAGCAGGCUCUUCCCCAGUACGUGUUUUCUGAGCCAUGCAUACCCUCUCCUUGGCCUCCGGUUUACUCUCAAGUGUUCCCUCUAUUCUCAUGCGUCCCACUUUGGGUCUGUACAAUC | 0.176
UAUGCAGGUGCGUUGAGAGCUUCAGGAGAAAUGGCUUCAGCACAGUAUAUUACUGCAGCUCUCCGAGAUUUGUUUGAUUCCAUGGAUAAAACUUCUUCUAGUAUCCCACCUAUUAUUCUG | 1.15
GUCAUUGAUGUCCUUCACCCCGGGAAGGCGACAGUGCCUAAGACAGAAAUUCGGGAAAAACCCGCCAAAAUGUACAAGACCACACCGGAUGUCAUCUUUGUAUUUGGAUUCAGAACUCAU | 0.355
UAAAGAACUCUUCAGAAUUCCUGGUGUUUCAUCAUAUAUACGACUAAGAUAUCAACUCUUCCCGCUUGCUGUUUCUGGACCAAAAAAAAUGACGUCUAUUAUCAAAUUAACUACCCUUUC | 0.787
CUGCUCCUCUCCUGGGCGGCGGGGCUGGGAGGUCAGUAUGGAAAUCCUUUAAAUAAAUAUAUCCGACAUUAUGAAGGAUUAUCUUACAAUGUGGAUUCAUUACACCAAAAACACCAGCGU | 0.336

Set 2 — target: CREB3L4, bZIP domain (human); technique: DHFR protein complementation; medium: yeast; reference: wild-type JUN-FOS pair; direction: higher = stronger binding
Setting: single substitutions, most at no-binding floor
Starting sequence: JUN, bZIP domain (human); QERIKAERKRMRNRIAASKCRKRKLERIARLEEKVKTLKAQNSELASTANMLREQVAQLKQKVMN; partner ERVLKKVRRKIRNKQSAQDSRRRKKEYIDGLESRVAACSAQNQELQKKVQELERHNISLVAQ
Variant | binding fitness [natural log]
V56N | -1.46
Q55S | -1.45
A40G | -1.43
L45H | -1.4
N42I | -1.24
R30V | -1.31
R30G | -1.37
V56P | -1.5
S47G | -1.49
E32Q | -1.19
L31K | -1.56
T48D | -1.21
A40E | -1.5
A49H | -1.44
L38V | -1.52
K39E | -1.58
V56W | -1.35
A29S | -1.42

Set 3 — target: CCNA2, cyclin fold, Cln2 fusion (human); technique: yeast growth competition, sequencing; medium: yeast; setting: strong parent motif; reference: not given; direction: higher = stronger binding
Starting sequence: PKMYT1 docking peptide (human); SFEPRNLLSLFED; partner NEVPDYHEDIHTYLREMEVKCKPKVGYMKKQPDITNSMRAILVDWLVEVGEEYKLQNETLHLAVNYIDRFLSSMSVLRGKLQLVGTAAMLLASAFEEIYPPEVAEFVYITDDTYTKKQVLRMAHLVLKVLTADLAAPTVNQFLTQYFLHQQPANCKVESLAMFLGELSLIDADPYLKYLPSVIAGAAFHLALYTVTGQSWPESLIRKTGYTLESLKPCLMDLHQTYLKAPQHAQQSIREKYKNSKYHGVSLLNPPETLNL
Variant | normalised enrichment score
SFEPRNLLSLFFD [E12F] | 1.21
SFERRNLLSLFED [P4R] | 0.834
SFEPRNLASLFED [L8A] | 2.68
SFEPRNLLSLFET [D13T] | 2.67
SFEPRVLLSLFED [N6V] | 0.0681
SFEPRNLLSLFEY [D13Y] | 2.69
SFEPRKLLSLFED [N6K] | 1.25
SFEPRNLLSLQED [F11Q] | -0.437
SEEPRNLLSLFED [F2E] | -1.05
SFEPRNLLSLFEK [D13K] | 3.26
SFSPRNLLSLFED [E3S] | 1.45
SVEPRNLLSLFED [F2V] | 1.35
SFEPQNLLSLFED [R5Q] | 0.227
SFEPRNLWSLFED [L8W] | -0.398
SFEPRNLLSLDED [F11D] | -1.41
SFEPRNYLSLFED [L7Y] | -1.08
SFEPENLLSLFED [R5E] | -0.113
SFEPRNLLSLFCD [E12C] | 2.23
SFEPRNLLSLFEV [D13V] | 2.26
SFEPRNLLILFED [S9I] | 1.61
SFEPRYLLSLFED [N6Y] | -0.485
SFEPRNLLSLFEF [D13F] | 2.55
DFEPRNLLSLFED [S1D] | 2.52
SREPRNLLSLFED [F2R] | 0.504
SFEPRNLLSCFED [L10C] | 1.68

Set 4 — technique: aptamer microarray, sandwich; form: DNA with 2'F-ANA; medium: in vitro; tested at: 200 nM; together with: Cy3 exosite-II aptamer, 400 nM; direction: higher = stronger binding; sequence: GGTTGGTGTGGTTGG
Target: Prothrombin, mature alpha-thrombin (F2, Homo sapiens, UniProt P00734)
Setting: whole 15-mer aptamer, many near background
Modification | mean fluorescence intensity [a.u.]
2'F-ANA at 1 3 6 7 8 12 13 14 | 130
2'F-ANA at 3 5 7 8 9 10 13 14 | 53.5
2'F-ANA at 1 3 4 5 8 13 15 | 50.2
2'F-ANA at 3 5 7 10 11 12 14 15 | 61.4
2'F-ANA at 4 5 11 14 15 | 51.6
2'F-ANA at 1 2 4 5 6 7 10 12 14 | 78.2
2'F-ANA at 3 4 6 7 9 11 12 13 15 | 443
2'F-ANA at 1 2 5 7 10 11 12 13 14 15 | 48.9
2'F-ANA at 1 4 5 8 9 10 15 | 49.4
2'F-ANA at 2 3 5 7 8 9 10 11 12 15 | 98.7
2'F-ANA at 6 7 14 | 203
2'F-ANA at 3 5 6 7 9 10 11 12 13 14 | 59.4
2'F-ANA at 3 4 9 10 11 14 | 221
2'F-ANA at 4 6 7 10 11 13 14 | 73.5
2'F-ANA at 3 4 5 6 8 11 12 14 15 | 54.7
2'F-ANA at 3 5 6 7 9 15 | 96.9
2'F-ANA at 3 4 6 7 8 | 789
2'F-ANA at 2 3 4 6 8 10 11 12 | 254

Set 5 — technique: RNAcompete; form: RNA; medium: in vitro; tested at: 20 nM; setting: 7-mer, probes averaged, single round; reference: mean of 7-mers; direction: higher = stronger binding
Target: PABPC1L2, full length, GST fusion (mouse, UniProt A0ABA7IW68)
Residues (chain): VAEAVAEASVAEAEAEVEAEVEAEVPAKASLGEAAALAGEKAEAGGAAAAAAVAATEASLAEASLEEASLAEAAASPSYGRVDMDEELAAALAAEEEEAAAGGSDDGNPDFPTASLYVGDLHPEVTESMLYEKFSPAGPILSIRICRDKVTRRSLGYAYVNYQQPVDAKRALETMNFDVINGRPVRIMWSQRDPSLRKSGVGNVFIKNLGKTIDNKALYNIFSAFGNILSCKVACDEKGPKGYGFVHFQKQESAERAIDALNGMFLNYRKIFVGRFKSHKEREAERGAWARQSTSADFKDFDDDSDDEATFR
Sequence | 7-mer Z-score
UGUCCGU | -0.342
CCCGCUU | -0.407
UCGCGUG | -0.238
AAAGGGU | 1.1
UCUGACC | -0.434
AUAGUUG | -0.132
GGCGAUA | 0.256
AGUAAGG | 0.104
GAGUCUG | -0.32
AUGGCGA | 0.0497
CUCCCAG | -0.233
GCAAGUA | -0.0609
CCCGAGC | -0.327
UGCAAUG | -0.0192
GGUGGCA | 0.392
AGCACUG | -0.0808
UGUUUCC | -0.463
GUCAGUC | -0.412
GGUUGCG | -0.103
UUAUUGC | -0.112
CUUACCA | -0.291

Set 6 — technique: DHFR PCA, dose-response; medium: yeast; setting: Hill fit, mean, not affinity; together with: (+)-ABA, dose series; direction: lower = more sensitive
Target: ABI1, truncated, D143A, DHFR fusion (Arabidopsis thaliana, UniProt P49597)
Starting sequence: PYL1, truncated, DHFR fusion (Arabidopsis thaliana, UniProt Q8VZS8); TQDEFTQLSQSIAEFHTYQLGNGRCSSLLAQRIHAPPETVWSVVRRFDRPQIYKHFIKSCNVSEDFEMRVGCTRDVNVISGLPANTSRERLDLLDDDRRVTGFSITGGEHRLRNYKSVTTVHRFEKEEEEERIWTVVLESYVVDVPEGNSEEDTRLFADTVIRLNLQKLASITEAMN
Variant | ABA EC50 [µM]
H55W | 8.41
T86D | 3.92
T119R | 738
G21I | 2.8
H122E | 20.8
D3F | 9.36
S117Q | 68.2
E64N | 2.49
R49L | 8.85
V142T | 1.54
V143T | 7.91
Q2R | 1.59
S42A | 3.27
L156E | 9.83
R45Q | 227

Set 7 — technique: protein binding microarray; form: double-stranded DNA, one strand shown; medium: in vitro; tested at: not given; reference: not given; direction: higher = stronger binding
Target: Histone acetyltransferase KAT6A, winged helix 1, GST fusion (KAT6A, Homo sapiens, UniProt Q92794, residues 1-85)
Setting: 8-mer, flanks averaged, mean of 2 arrays, mostly near background
Residues (chain): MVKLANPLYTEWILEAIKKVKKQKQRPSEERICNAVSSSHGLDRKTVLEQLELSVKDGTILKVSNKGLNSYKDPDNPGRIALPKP
Sequence | E-score
CGCTGATC | 0.301
TGCCCGCA | 0.177
CCATAATA | -0.0839
GGATATCA | -0.0092
ACCTGCCT | -0.163
AGTAAAGG | -0.105
AGCTACGC | 0.156
CAAAAAAG | -0.104
CGAATGCG | 0.306
AGCAAGAA | -0.113
AGTAAGTA | -0.1
GCGCCTTA | 0.283
ATTAGCCA | -0.215
ATTAAGAC | -0.219
GCCGTCCC | 0.346
GATTGTAA | -0.125
ACTTAAAA | -0.114
ATTGCTGG | -0.0707
GTACCCAC | 0.134
CATGGCCG | 0.275
CTATGTGC | -0.0627
TGGGACAA | -0.208
ACAACGGG | 0.0813
CTATATGC | -0.00929

Other studies, line by line
Substance | target | assay | system | setting | scale | endpoint | value
PhoQ, residues 284 288 289 292 302 303 HSYLQF | PhoP, residues 12 14 15 18 19 QYFSL (Escherichia coli, UniProt P23836) | Sort-seq, refers to: YFP reporter | E. coli | PhoQ-PhoP variant library, together with: 10 µM Mg2+ | reference: high Mg2+ state, higher = stronger signaling | fold induction | 1.29

For quick reference, copied from above (set 3):
Variant | normalised enrichment score
SFEPRNLASLFED [L8A] | 2.68
SFEPRYLLSLFED [N6Y] | -0.485
SFEPRNYLSLFED [L7Y] | -1.08
SFEPRNLLSLFCD [E12C] | 2.23
SFEPRNLWSLFED [L8W] | -0.398
SEEPRNLLSLFED [F2E] | -1.05
SFEPRNLLSLQED [F11Q] | -0.437
SFEPRNLLSCFED [L10C] | 1.68
